{"data": "Measured values of several laboratories", "target": "Ephrin type-A receptor 1 (EPHA1, Homo sapiens, UniProt P21709)", "note": "Each line is one published result; not all experiments were run side by side. “And” joins repeats or separate records; there may be more than shown."}
{"SMILES": "COc1c(Cl)cccc1Nc1c(-c2ccncc2C#C[C@@]2(C)CCCN2C(=O)/C=C/CN(C)C)[nH]c2c1C(=O)NCC2", "test": "cell-free assay, competition with immobilised ligand", "conditions": "3 µM", "measurement": "remaining binding", "value": "69%"}
{"SMILES": "O=C(Cc1ccc(OCc2ccccc2)cc1)NC1(C(=O)O)CCN(C(=O)c2ccc(-c3cccc(Cl)c3)cc2)CC1", "test": "enzyme activity, inhibitor", "conditions": "10 µM", "measurement": "activity vs control", "value": "108%"}
{"SMILES": "Nc1ncc(-c2cc(-c3cnn(CC(F)(F)F)c3)ncc2F)nc1C(=O)NC1CNCC(F)C1 (centres unmarked)", "test": "enzyme activity", "conditions": "1 µM", "scale": "relative to: DMSO control", "measurement": "remaining activity", "value": "99.8%"}
{"SMILES": "CN1CCN(Cc2ccc(-c3ccc(CO[C@H]4CCC[C@@H]4NC(=O)c4cc(-c5cnn(C)c5)cnc4N)cc3)cc2)CC1", "test": "enzyme activity, inhibitor", "conditions": "0.1 µM", "measurement": "inhibition", "value": "1%"}
{"SMILES": "CNC1C[S+]2CC[S+]3CC[S+](C1)[Ru-4]321([N]=C=S)[n]2c3ccc(OC)cc3c3c4c(c5cc(F)c[n+]1c5c32)C(=O)NC4=O (centres unmarked)", "test": "KinomeScan", "conditions": "0.1 µM", "scale": "relative to: untreated", "measurement": "remaining binding", "value": "100%"}
{"SMILES": "COc1cc(Nc2nccc(-c3cnn4nc(OC)ccc34)n2)cc(C(F)(F)F)c1", "test": "binding, competition with immobilised ligand", "conditions": "1 µM", "measurement": "remaining binding", "value": "100%"}
{"SMILES": "CNC(=O)C1CCN(c2cc(C)c(F)cc2NC(=O)c2ccc(-c3cc(O)ccc3C)c(C)c2)CC1", "test": "binding, competition with immobilised ligand", "conditions": "1 µM", "measurement": "remaining binding", "value": "3.9%"}
{"SMILES": "C=CC(=O)Nc1cccc(-c2cnc3[nH]cc(C(=O)NC(C)(C)C)c3n2)c1", "test": "kinase activity", "conditions": "0.1 µM", "measurement": "inhibition", "value": "-7% and -6%"}
{"SMILES": "NC(=O)[C@@H](O)C[C@H]1CCc2sc3ncnc(O[C@H]4CC[C@H](N5CCOCC5)CC4)c3c21", "test": "enzyme activity, inhibitor", "conditions": "10 µM", "measurement": "inhibition", "value": "8%"}
{"SMILES": "Cc1cnc2nc1Nc1cccc(c1)COC/C=C/COCc1cc(ccc1OCCN1CCOCC1)N2", "test": "binding", "conditions": "0.1 µM", "measurement": "remaining binding", "value": "82%"}
{"SMILES": "COCC12C(=O)NC3C4(C(OC)CC1O)C1CC5(O)C(OC)C(O)C(OC(C)=O)(C1C5OC(=O)c1ccccc1)C3(O)C(OC)C24 (centres unmarked)", "test": "kinase activity, inhibitor, ProQinase kinase profiling", "conditions": "25 µM", "scale": "relative to: control", "measurement": "remaining activity", "value": "116% and 99%"}
{"SMILES": "Cc1cccc(O[C@H]2CCC[C@@H](C(C)CNCc3ccncc3)C2)c1 (relative stereo)", "test": "cell-free assay", "conditions": "1 µM", "measurement": "inhibition", "value": "0%"}
{"SMILES": "C=CC(=O)N1Cc2nc(-c3cc(-c4cc(Cl)cnc4Cl)c(F)cc3F)n(-c3ccncn3)c2C1", "test": "cell-free assay", "conditions": "1 µM", "measurement": "inhibition", "value": "4.1%"}
{"SMILES": "CCn1cc(C(=O)O)c(=O)c2c(N)c(F)c(NC3CCCCC3)cc21", "test": "kinase activity", "conditions": "0.1 µM, together with: ATP at Km", "measurement": "inhibition", "value": "-3.1%"}
